Experimental data of several laboratories.
Parts stem from different laboratories: compare values within a part only. Positions count from the first letter of the parent shown.

Sample 1 — method: protein-binding microarray; form: double-stranded DNA, one strand shown; sample: in vitro; tested at: not given; direction: higher = stronger binding
Target: Protein C-ets-1 (ETS1, Homo sapiens, UniProt P14921, residues 1-441, full length assumed)
Sequence of UniProt P14921 (whole entry, looked up): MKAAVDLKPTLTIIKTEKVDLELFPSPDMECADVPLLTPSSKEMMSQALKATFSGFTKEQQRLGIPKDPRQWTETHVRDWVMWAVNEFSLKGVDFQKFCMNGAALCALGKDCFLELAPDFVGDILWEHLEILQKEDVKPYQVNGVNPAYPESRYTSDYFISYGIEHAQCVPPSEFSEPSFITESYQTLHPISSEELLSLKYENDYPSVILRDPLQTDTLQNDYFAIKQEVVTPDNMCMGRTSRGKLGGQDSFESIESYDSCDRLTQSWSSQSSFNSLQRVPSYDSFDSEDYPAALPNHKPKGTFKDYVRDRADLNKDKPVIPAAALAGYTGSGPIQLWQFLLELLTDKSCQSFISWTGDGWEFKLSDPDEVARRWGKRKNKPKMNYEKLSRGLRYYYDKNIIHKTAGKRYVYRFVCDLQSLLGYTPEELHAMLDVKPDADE
Notes: k-mer, scored over probes, only values ≥0.25
`ACAGCGGA` gave an E-score of 0.306.
With `AAGGAAAT` the E-score was 0.442.
`CAGACCGG` has an E-score of 0.357.
For `AAGGAAGG`, the E-score was 0.351.
`GATATAGC` has an E-score of 0.306.
`AGTATTTC` has an E-score of 0.253.
For `AACAGGAC`, the E-score was 0.301.
`CATCCGGA` gave an E-score of 0.483.
`AACGGACA` has an E-score of 0.251.
For `CACATCCG`, the E-score was 0.487.
`AGGATACT` gave an E-score of 0.277.
`AACCCCGG` has an E-score of 0.318.
`CGGGGAAC` has an E-score of 0.334.
`ACCGGAAC` has an E-score of 0.472.
The E-score of `CATATCCG` is reported as 0.473.
`CCCGCCAC` gave an E-score of 0.302.
For `CCGCCATA`, the E-score was 0.264.
`CGAAGGAA` gave an E-score of 0.267.
For `ACCCCGTC`, the E-score was 0.252.

Sample 2 — method: RNA Bind-n-Seq; form: RNA; sample: in vitro; tested at: 200 nM; notes: whole 134-nt RNA, ends assumed; with: 150 mM LiCl; baseline: input library; direction: higher = stronger binding; library: 7-deaza-guanosine replaces G
Target: Fragile X messenger ribonucleoprotein 1, C-terminal low-complexity region (Fmr1, Mus musculus, UniProt P35922)
All sequences stand within: GGGAGUUCUACAGUCCGACGAUC … UGGAAUUCUCGGGUGUCAAGG
`UCAAGUCCUGUGCUACACAUCGUAUGUACCGAAUCGGGGCCCGGCCCGGGCCCGGAAAGUAUUAUGUUACGCCGUUCGGAUCUGCACUUC` has a log2 enrichment of -1.23.
`UGGGAGGUGGAUUUUGUUUAUUCUUUUAGCUCAUUUCCAGGGGUGGGAAUUUUUUUUUAAUAUGUGUCAUGAAUAAAGUUGUUUUUGAAA` has a log2 enrichment of 0.074.
The log2 enrichment of `AGUCCUGUGCUACACAUCGUAUGUACCGAAUCGGGUUUGGGAAAAAGGGUUUUUGGGAAAGUAUUAUGUUACGCCGUUCGGAUCUGCACU` is reported as -2.73.
The log2 enrichment of `ACCAUGCAGGUGGGGAUCUUUGGGAAGUGGGGCAAGGGGGGGAUAGGGAGGGGGGUAACACUUUGGGAACAGGUGGUCCCAGGUCGUUUC` is reported as 1.18.
For `CCUGUGCUACACAUCGUAUGUACCGAAUCGGGCCCCCCGGGGCCCCCCGGGCCCCCCGGGAAAGUAUUAUGUUACGCCGUUCGGAUCUGC`, the log2 enrichment was -3.1.
For `GUCCUGUGCUACACAUCGUAUGUACCGAAUCGGUUUUUGGGUUUUUGGGGUUUUUGGGGAAAGUAUUAUGUUACGCCGUUCGGAUCUGCA`, the log2 enrichment was -0.855.
With `GUCCUGUGCUACACAUCGUAUGUACCGAAUCGGGUUUUUGGGGUUUUUGGUUUUUGGGAAAGUAUUAUGUUACGCCGUUCGGAUCUGCAC` the log2 enrichment was -1.57.
`AAGUCCUGUGCUACACAUCGUAUGUACCGAAUCAAAUUUAAACCCCCAAACCCAAAAAAGUAUUAUGUUACGCCGUUCGGAUCUGCACUU` has a log2 enrichment of 0.945.
For `GUCCUGUGCUACACAUCGUAUGUACCGAAUCGGGUUUUUUUGGGAGGGUUUUUUUGGGAAAGUAUUAUGUUACGCCGUUCGGAUCUGCAC`, the log2 enrichment was -0.418.
The log2 enrichment of `AGUCCUGUGCUACACAUCGUAUGUACCGAAUCGGGGCCCCGGCCCCGGGGCCCCGGGAAAGUAUUAUGUUACGCCGUUCGGAUCUGCACU` is reported as -3.36.
For `UCCUGUGCUACACAUCGUAUGUACCGAAUCGGGAAAAAGGGUUUUUGGGAAAAAAAGGGAAAGUAUUAUGUUACGCCGUUCGGAUCUGCA`, the log2 enrichment was -0.868.

Sample 3 — target: CREBL2, bZIP domain (human); method: DHFR protein complementation; sample: yeast; baseline: wild-type JUN-FOS pair; direction: higher = stronger binding
Notes: single substitutions, most at no-binding floor
Starting sequence: JUN, bZIP domain (human); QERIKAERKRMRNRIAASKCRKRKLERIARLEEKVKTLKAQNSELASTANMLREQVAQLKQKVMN; partner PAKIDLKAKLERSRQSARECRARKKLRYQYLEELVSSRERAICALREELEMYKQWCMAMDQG
For `L38S`, the binding fitness was -1.54 natural log.
With `S47N` the binding fitness was -1.4 natural log.
The binding fitness of `L45M` is reported as -1.36 natural log.
With `A46S` the binding fitness was -1.46 natural log.
With `S43K` the binding fitness was -1.51 natural log.
`T37V` gave a binding fitness of -1.48 natural log.
For `R53Q`, the binding fitness was -1.45 natural log.
For `A46K`, the binding fitness was -1.5 natural log.
The binding fitness of `Q55C` is reported as -1.39 natural log.
`A40L` gave a binding fitness of -1.55 natural log.
`Q41G` gave a binding fitness of -1.49 natural log.
With `L31N` the binding fitness was -1.51 natural log.
`M51G` gave a binding fitness of -1.53 natural log.
The binding fitness of `K34T` is reported as -1.55 natural log.
`Q55N` has a binding fitness of -1.53 natural log.
For `R30Q`, the binding fitness was -1.55 natural log.
With `L45C` the binding fitness was -1.37 natural log.
`K36I` gave a binding fitness of -1.54 natural log.
The binding fitness of `A29C` is reported as -1.51 natural log.

Sample 4 — method: RNA Bind-n-Seq; form: RNA; sample: in vitro; tested at: 365 nM; baseline: no-protein control; direction: higher = stronger binding
Target: RNA binding protein fox-1 homolog 2, RRM domain, GST-SBP tag (RBFOX2, Homo sapiens, UniProt O43251-10, residues 100-194)
Notes: natural RNA segment, single round, ends assumed
All sequences stand within: GGGAGUUCUACAGUCCGACGAUC … UGGAAUUCUCGGGUGCCAA
Construct (chain): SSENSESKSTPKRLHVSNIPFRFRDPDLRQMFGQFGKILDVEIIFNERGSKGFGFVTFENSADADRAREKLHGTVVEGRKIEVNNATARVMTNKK
`GUUUUAAGGAGAUACAAUUUACCUGCCACAAAAUUUACCCAUUUUAGGUUUAUACUUAGAUGGUUGUUCAGUAAGUUUAUAGAGUUGUGCAACUAUCACAACCAAUGUUA` — result for “RBNS enrichment (R)”: 0.621.
For `AGCCAGGCACCCACCUCAGGACAAGUUCAGGAAGGGAAGACAGUGGACUGUACGGGACCUGGUGUGUGUGGUGGUGUGAGUGGUGGGGCUGUGGGUGAGAGAUCGCUCUC`, “RBNS enrichment (R)” read 0.705.
`CAAGGCAUUUACUCCUUGGUCUGUCUCGCUUUAUCUGUCGCCCCUCCCAGCGCUGAGAGCCUCCCCUGGCUGUCAGCAGCACUGUGUCCAGGCUCUUGUCUGAACACCGC` — result for “RBNS enrichment (R)”: 0.163.
`GUUUUGUUGAAAGCGCUAUUGAAUAUUGCAAUCUAUAUAGUGUAUUGGAUGGCUUCUUUUGUCACCCUGAUCUCCUAUGUUACCAAUGUGUAUCGUCUCCUUCUCCCUAA` — result for “RBNS enrichment (R)”: 0.297.
Under “RBNS enrichment (R)”, `GGGGUCAUUAUCACUAGACGGGGACGGCCGGGUACAGCGGGGCCUCUCUCACAUGGCCCAGUGACCAAUCCCAUCCUCAUCCUCGGAGGAGCCCCGAAGCUUUCCCCGAC` is recorded as 0.283.
`CUGUGCCAUGGAUUUUGUUUUCCUUGGGGUAUUCUUGAUGUGAAGAUAAUUUGCAUACUCUAUUGUAUUAUUUGGAGUUAAAUCCUCACUUUGGGGGAGGGGGGAGCAAA` — result for “RBNS enrichment (R)”: 1.01.
For `GAGGGAGCUGACCGAUGCCGGGUGUCUUACUCCGCUGAGAUCAGAACCUCCAACAUGCCGAGCAGACGCAGGCCACAUUGCUCGGGGAACAGGACACCAGGGCGCUGUGC`, “RBNS enrichment (R)” read 0.694.
`GAGCUCAGCAUGUCACGGCAAGGACUGCCGCAUUGGUGAUGGAGGGCCAGCUGAGGGGAAGUUGCUGGUGAGUUUCCUUUUCUCCAUUUCUAGCAUAUGGACACCUGGCC` — result for “RBNS enrichment (R)”: 12.6.
Under “RBNS enrichment (R)”, `CUUGCUGGGUCACCUUUUCCUGAGGAAUGAUACAGAAGAGUGUUUUUUCAUAAACUGGACCAUAAUUCUUCAUGUUUACCAUGGAGAGUUUUACAGAAAUUUGGCUGCAC` is recorded as 0.355.
`GCAAGAGGUUUCUUGUGGAAAUUAUGUCCUUUCUGAGAGGAGCUGGGGAUUAGAUGCUCCUGCAUUUGUGAAAUGGUUAUAAGCAUAGAAAAAUAGGUGGUAAGCUUUCC`: “RBNS enrichment (R)” 1.35.
For `UUUAUUUUAAAAAUAAUGCAUGUGCACUUUAGAAAUUUUUGAAAAUAAAGAUACAUGAAAGAAAGUUAUAUAAUUUUUCUGCAACAAUAACUGUGCUUGCUAAAGUGAUG`, “RBNS enrichment (R)” read 66.1.
`AUCUGUGCCAAACAUAGGCGCUCCUAGUCUGGUCAGUGCCAAGAGGCUACCAGAACAUGGGGCAGGUGGCUGGUGUUGGUGUCCCAGCCUAAGAGCCACCUGCUGCAGUU` — result for “RBNS enrichment (R)”: 0.275.

Sample 5 — target: CRIPT, C-terminal peptide; method: DHFR complementation, deep sequencing; sample: yeast; baseline: wild type; direction: higher = weaker binding
Notes: single substitutions, model-inferred values
Starting sequence: ERBIN, PDZ domain 1 (human); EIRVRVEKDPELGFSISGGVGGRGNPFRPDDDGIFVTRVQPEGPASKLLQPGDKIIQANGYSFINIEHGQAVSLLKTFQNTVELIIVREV; partner TKNYKQTSV
Under “binding free energy change”, `R38C` is recorded as 0.0902 kcal/mol.
`G18C` — result for “binding free energy change”: 1.33 kcal/mol.
`N59D` — result for “binding free energy change”: 0.12 kcal/mol.
For `P41N`, “binding free energy change” read 0.233 kcal/mol.
For `G69V`, “binding free energy change” read 0.0903 kcal/mol.
`V4H` — result for “binding free energy change”: 0.835 kcal/mol.
For `P51R`, “binding free energy change” read 0.218 kcal/mol.
Under “binding free energy change”, `N65V` is recorded as 0.131 kcal/mol.
`N59A`: “binding free energy change” 0.164 kcal/mol.
`N65T`: “binding free energy change” 0.0435 kcal/mol.
`I55C`: “binding free energy change” 0.542 kcal/mol.
`D9M` — result for “binding free energy change”: 0.069 kcal/mol.
`E7I`: “binding free energy change” 0.0699 kcal/mol.
Under “binding free energy change”, `G13E` is recorded as 1.21 kcal/mol.
`V72I`: “binding free energy change” 1.4 kcal/mol.
Under “binding free energy change”, `S15K` is recorded as 0.901 kcal/mol.

Sample 6 — target: CCNB2, cyclin fold, Cln2 fusion (human); method: yeast growth competition, sequencing; sample: yeast; notes: weak parent motif; baseline: not given; direction: higher = stronger binding
Starting sequence: CDC6 docking peptide (human); TLKGRRLVFDNQL
`V8C` — result for “normalised enrichment score”: 0.62.
`K3L` — result for “normalised enrichment score”: 0.679.
`V8G` — result for “normalised enrichment score”: 0.32.
For `F9T`, “normalised enrichment score” read -0.00641.
For `N11K`, “normalised enrichment score” read 0.502.
Under “normalised enrichment score”, `F9R` is recorded as 0.335.
Under “normalised enrichment score”, `R5Q` is recorded as -0.569.
`R6K` — result for “normalised enrichment score”: -0.117.
`L13Y`: “normalised enrichment score” 0.865.
Under “normalised enrichment score”, `L13S` is recorded as 0.276.
For `Q12N`, “normalised enrichment score” read -0.254.
`L2S` — result for “normalised enrichment score”: -0.388.
`F9Y`: “normalised enrichment score” 0.551.
For `Q12I`, “normalised enrichment score” read 0.405.
Under “normalised enrichment score”, `L7Y` is recorded as 0.581.
Under “normalised enrichment score”, `L2C` is recorded as 0.0611.
`V8R`: “normalised enrichment score” 0.452.
`N11D`: “normalised enrichment score” -0.0989.
For `L7R`, “normalised enrichment score” read 0.577.

Further values, each from its own experiment
`PhoQ, residues 284 288 289 292 302 303 TTCLQL` gave a fold induction of 0.489 (PhoP, residues 12 14 15 18 19 NIMAP (Escherichia coli, UniProt P23836); Sort-seq, refers to: YFP reporter; E. coli; PhoQ-PhoP variant library, with: 10 µM Mg2+; baseline: high Mg2+ state, higher = stronger signaling).
